Assay results from different studies.
Numbers after ± are the reported error.
Cell line: HCT-116

CN1CCC2(CC1)C/C(=N\N=C\c1ccc(N(C)C)cc1)c1ccccc1O2 — IC50 (48 h): 31 ± 1.32 µM
O=C(CNc1ccc(F)cc1)n1ncc2c1ncn1[nH]c(=S)nc21 — IC50 (cell growth or viability, MTT; 48 h): 0.926 µM
O=c1[nH]c2ccccc2nc1/C=C/c1ccccc1[N+](=O)[O-] — IC50 (cell growth or viability, MTT; 72 h): > 50 µM
Cc1ccc(-n2c(SCC(=O)NNC(=O)Nc3ccc(Cl)cc3)nc3ccccc3c2=O)cc1 — IC50: 7.83 ± 0.6 µM
N#Cc1c(Nc2ccccc2)n2nc(NC(=O)c3ccccc3)sc2nc1=O — IC50 (cell growth or viability, MTT; 48 h): 17 µM
COc1cc(-c2ccc(C(=O)N/N=C/c3ccc(O)cc3)c(C)n2)cc(OC)c1OC — IC50 (cell growth or viability, MTT): 11.7 µM
COc1cccc(/C=C/c2nc3ccccc3[nH]c2=O)c1OC — IC50 (cell growth or viability, MTT; 72 h): 24.9 µM
O=C(/C=C/c1ccc(F)cc1)c1nc2ccccc2n1Cc1cn([C@@H]2O[C@H](CO)[C@H](O)[C@H](O)[C@H]2O)nn1 — IC50 (cell growth or viability, LDH; 48 h): 5.3 µM
COc1cc(-c2ccc(-c3nnc(SCCCBr)o3)c(C)n2)cc(OC)c1OC — IC50 (cell growth or viability, MTT): 20.4 µM
Cc1c(N)nc([C@H](CC(N)=O)NC[C@H](N)C(N)=O)nc1C(=O)N[C@H](C(=O)N[C@H](C)[C@@H](O)[C@H](C)C(=O)N[C@H](C(=O)NCCC1=N[C@@H](c2nc(C(=O)NCCCCN=C(N)N)cs2)CS1)[C@@H](C)O)[C@@H](O[C@@H]1O[C@@H](CO)[C@@H](O)[C@H](O)[C@@H]1O[C@H]1O[C@H](CO)[C@@H](O)[C@H](OC(N)=O)[C@@H]1O)c1cnc[nH]1 — IC50 (cell growth or viability, resazurin; 96 h): 1.86 µg/mL
C=CC(=O)Nc1nc(-c2ccc(O)cc2)cs1 — IC50 (cell viability, MTT; 72 h): 12.5 µM
Nc1nnc(NC(=O)c2ccccc2)s1 — IC50 (cell growth or viability, MTT; 48 h): 15.3 µM
Cc1ccc(-n2c(SCC(=O)NNC(=O)Nc3ccc(F)cc3)nc3ccccc3c2=O)cc1 — IC50: 39.8 ± 2.3 µM
COc1cc(OC)c(/C=N/NC(=O)c2ccc(-c3cc(OC)c(OC)c(OC)c3)nc2C)c(OC)c1 — IC50 (cell growth or viability, MTT): 10.8 µM
N#CC(C(=O)Nc1nnc(NC(=O)c2ccccc2)s1)=C1Nc2ccccc2O1 — IC50 (48 h): 5.98 ± 0.3 µM
Cc1ccc(NCC(=O)n2ncc3c(=N)n(N)cnc32)cc1 — IC50 (cell growth or viability, MTT; 48 h): 0.51 µM
O=c1c(/C=C/c2ccccc2Cl)nc2ccccc2n1Cc1ccccc1 — IC50 (cell growth or viability, MTT; 72 h): > 50 µM
Cc1ccc(NCC(=O)n2ncc3c2ncn2nc(SCC#N)nc32)cc1 — IC50 (cell growth or viability, MTT; 48 h): 0.073 µM
COc1ccc(NC(=O)NNC(=O)CSc2nc3ccccc3c(=O)n2-c2ccc(OC)cc2)cc1 — IC50: > 100 µM
CC(C)c1cccc(C(C)C)c1-n1ccn(-c2c(C(C)C)cccc2C(C)C)[c]1=[Au][Cl] — IC50 (cell viability; 72 h): 39.7 ± 4.9 µM
O=c1c(/C=C/c2ccccc2F)nc2ccccc2n1Cc1ccccc1 — IC50 (cell growth or viability, MTT; 72 h): > 50 µM
COc1cc(O)c2c(c1)O[C@H](c1ccc(O)c(O)c1)[C@@H](O)C2=O — IC50 (cell growth or viability, MTT; 48 h): 34 µg/mL
COc1ccc(/C=N/NC(=O)c2ccc(-c3cc(OC)c(OC)c(OC)c3)nc2C)cc1OC — IC50 (cell growth or viability, MTT): 6.45 µM
Cn1c(=O)c(/C=C/c2ccc(F)cc2)nc2ccccc21 — IC50 (cell growth or viability, MTT; 72 h): 5.28 µM
O=C1c2c(O)cc(O)cc2OC(c2ccc(O)c(O)c2)C1O (centres unmarked) — IC50 (cell growth or viability, MTT; 48 h): 32 µg/mL
Cc1ccc(-n2c(SCC(=O)NNC(=O)Nc3c(C)cccc3C)nc3ccccc3c2=O)cc1 — IC50: 18.7 ± 1.4 µM
Cc1ccc(NCC(=O)n2ncc3c(=N)n(N[C@@H]4O[C@H](CO)[C@@H](O)[C@H](O)[C@H]4O)cnc32)cc1 — IC50 (cell growth or viability, MTT; 48 h): 0.074 µM
Cc1ccc(NC(=O)NNC(=O)CSc2nc3ccccc3c(=O)n2-c2ccc(C)cc2)cc1 — IC50: 69.4 ± 3.7 µM
Cc1cc(-c2ccccc2)n(-c2nnc(NC(=O)c3ccccc3)s2)c(=O)c1C#N — IC50 (cell growth or viability, MTT; 48 h): 68 µM
O=c1[nH]c2ccccc2nc1/C=C/c1ccc(F)cc1 — IC50 (cell growth or viability, MTT; 72 h): 21.3 µM
COc1cc(C=C(C#N)C(=O)Nc2nnc(NC(=O)c3ccccc3)s2)ccc1O — IC50 (cell growth or viability, MTT; 48 h): 10.9 µM
O=c1[nH]c2ccccc2nc1/C=C/c1ccccc1 — IC50 (cell growth or viability, MTT; 72 h): 12.3 µM
COc1ccc(-n2c(SCC(=O)NNC(=O)Nc3ccc(Cl)cc3)nc3ccccc3c2=O)cc1 — IC50: 64.3 ± 3.5 µM
COC(CSc1nc2c3cnn(C(=O)CNc4ccc(F)cc4)c3ncn2n1)OC — IC50 (cell growth or viability, MTT; 48 h): 0.071 µM
COc1ccc(-n2c(SCC(=O)NNC(=O)Nc3ccc(C)cc3)nc3ccccc3c2=O)cc1 — IC50: 57.1 ± 3.2 µM
Cn1c(=O)c(/C=C/c2ccccc2Cl)nc2ccccc21 — IC50 (cell growth or viability, MTT; 72 h): 4.06 µM
O=C(OC[C@H]1O[C@@H](OC(=O)c2cc(O)c(O)c(OC(=O)c3cc(O)c(O)c(O)c3)c2)[C@H](OC(=O)c2cc(O)c(O)c(OC(=O)c3cc(O)c(O)c(O)c3)c2)[C@@H](OC(=O)c2cc(O)c(O)c(OC(=O)c3cc(O)c(O)c(O)c3)c2)[C@@H]1OC(=O)c1cc(O)c(O)c(OC(=O)c2cc(O)c(O)c(O)c2)c1)c1cc(O)c(O)c(OC(=O)c2cc(O)c(O)c(O)c2)c1 — IC50 (cell growth or viability; 48 h): ~20 µM
Cc1cc(C)n(-c2nnc(NC(=O)c3ccccc3)s2)c(=O)c1C#N — IC50 (cell growth or viability, MTT; 48 h): 12.8 µM
O=C(CSc1nc2ccccc2c(=O)n1-c1ccc(Cl)cc1)NNC(=O)Nc1ccc(Cl)cc1 — IC50: 35 ± 2.2 µM
CC(=O)OCCSc1nc2c3cnn(C(=O)CNc4ccc(F)cc4)c3ncn2n1 — IC50 (cell growth or viability, MTT; 48 h): 0.009 µM
N#CC(C(=O)Nc1nnc(NC(=O)c2ccccc2)s1)=C1Nc2ccccc2N1 — IC50 (cell growth or viability, MTT; 48 h): 56.9 µM
COc1cc(-c2ccc(C(=O)N/N=C/c3ccc([N+](=O)[O-])cc3)c(C)n2)cc(OC)c1OC — IC50 (cell growth or viability, MTT): 4.5 µM
N=c1c2cnn(C(=O)CNc3ccc(F)cc3)c2ncn1N[C@@H]1OC[C@@H](O)[C@H](O)[C@H]1O — IC50 (cell growth or viability, MTT; 48 h): 0.093 µM
Cc1ccc(NCC(=O)n2ncc3c2ncn2nc(SCC(O)CO)nc32)cc1 (centres unmarked) — IC50 (cell growth or viability, MTT; 48 h): 0.038 µM

Some of these lines once more:
COc1ccc(-n2c(SCC(=O)NNC(=O)Nc3ccc(C)cc3)nc3ccccc3c2=O)cc1 — IC50: 57.1 ± 3.2 µM
Cc1cc(C)n(-c2nnc(NC(=O)c3ccccc3)s2)c(=O)c1C#N — IC50 (cell growth or viability, MTT; 48 h): 12.8 µM
N#Cc1c(Nc2ccccc2)n2nc(NC(=O)c3ccccc3)sc2nc1=O — IC50 (cell growth or viability, MTT; 48 h): 17 µM
O=C(/C=C/c1ccc(F)cc1)c1nc2ccccc2n1Cc1cn([C@@H]2O[C@H](CO)[C@H](O)[C@H](O)[C@H]2O)nn1 — IC50 (cell growth or viability, LDH; 48 h): 5.3 µM
COc1cc(-c2ccc(-c3nnc(SCCCBr)o3)c(C)n2)cc(OC)c1OC — IC50 (cell growth or viability, MTT): 20.4 µM
O=c1c(/C=C/c2ccccc2Cl)nc2ccccc2n1Cc1ccccc1 — IC50 (cell growth or viability, MTT; 72 h): > 50 µM
